Published values gathered from unrelated publications.
Protocols differ between the studies behind these lines. Numbers after ± are the reported error.

Structure (SMILES) = CCOc1cc([C@@H](CS(C)(=O)=O)N2C(=O)c3cccc(NC(C)=O)c3C2=O)ccc1O[C@@H]1O[C@H](C(=O)O)[C@@H](O)[C@H](O)[C@H]1O; test system = severe renal impairment patients, plasma; setting = oral, 30 mg of apremilast; Tmax = 12 h
Structure (SMILES) = CC(C)(Sc1ccncc1-c1ccc(C#N)c2ccccc12)C(=O)O; test system = male, plasma; setting = oral, 15 mg, moderate renal impairment, fasted; Tmax = 3 h
Structure (SMILES) = COc1ccc2c3c1O[C@H]1C[C@@H](OC(=O)c4ccccc4)C=C[C@@]31CCN(C)C2; test system = healthy elderly men, plasma; setting = intranasal, 44 mg, single dose; Tmax = 0.71 h
Structure (SMILES) = CN1C(=O)[C@@H](NC(=O)c2nnc(Cc3ccccc3)[nH]2)COc2ccccc21; test system = healthy men, plasma; setting = oral, 60 mg once daily, day 14, median; Tmax = 2 h
Structure (SMILES) = C=C(C)[C@@H]1CC[C@]2(NCCN3CCS(=O)(=O)CC3)CC[C@]3(C)[C@H](CC[C@@H]4[C@@]5(C)CC=C(C6=CC[C@@](CF)(C(=O)O)CC6)C(C)(C)[C@@H]5CC[C@]43C)[C@@H]12; test system = healthy adults, plasma; setting = oral, 200 mg once daily, day 7, added: dolutegravir 50 mg; Tmax = 5 h
Structure (SMILES) = Cc1cn([C@H]2C[C@H](N=[N+]=[N-])[C@@H](CO)O2)c(=O)[nH]c1=O; test system = healthy men, PBMCs; setting = oral, 600 mg; Tmax = ≤ 1.08 h
Structure (SMILES) = Cc1nc(-c2ccc(OCC(C)C)c(C#N)c2)sc1C(=O)O; test system = healthy men, plasma; setting = oral, 40 mg once daily, day 7 or 21, median; Tmax = 1.5 h
Structure (SMILES) = CC(C)=CCC[C@](C)(O[C@@H]1O[C@H](CO)[C@@H](O)[C@H](O)[C@H]1O)[C@H]1CC[C@]2(C)[C@@H]1[C@H](O)C[C@@H]1[C@@]3(C)CC[C@H](O[C@@H]4O[C@H](CO)[C@@H](O)[C@H](O)[C@H]4O[C@@H]4O[C@H](CO)[C@@H](O)[C@H](O)[C@H]4O)C(C)(C)[C@@H]3CC[C@]12C; assay = LC-MS/MS; test system = healthy male volunteers, serum; setting = oral, 3 g fermented red ginseng; Tmax = 9.92 ± 3.33 h
Structure (SMILES) = O=C(N[C@H]1CCN(CC2CC2)C[C@@H]1C(=O)NC1(c2ncccn2)CC1)c1cc(-c2ccc(F)cc2F)on1; test system = healthy male subjects; setting = oral, 10 mg, fed, median, added: itraconazole 200 mg multiple doses; Tmax = 2 h
Structure (SMILES) = C[C@@H](O)[C@H]1C(=O)N2C(C(=O)O)=C(S[C@@H]3CN[C@H](C(=O)N(C)C)C3)[C@H](C)[C@H]12; assay = microdialysis; test system = Danish Landrace pig, subcutaneous adipose tissue; setting = intravenous infusion, 1000 mg over 10 min, added: vancomycin; Tmax = 0.433 h
Structure (SMILES) = CC1=C2C[C@H]3[C@@H](CC[C@@H]4C[C@H](NS(C)(=O)=O)CC[C@@]43C)[C@@H]2CC[C@@]2(C1)O[C@@H]1C[C@H](C)CN[C@H]1[C@H]2C; test system = patients, plasma; setting = oral, 210 mg daily, day 22, cycle 1; Tmax = 5.08 h
Structure (SMILES) = CCC1=C(C)CN(C(=O)NCCc2ccc(S(=O)(=O)NC(=O)N[C@H]3CC[C@H](C)CC3)cc2)C1=O; test system = healthy Korean male volunteers; setting = oral, 4 mg single dose, median; Tmax = 3 h
Structure (SMILES) = COc1ccc(-n2nc(C(N)=O)c3c2C(=O)N(c2ccc(N4CCCCC4=O)cc2)CC3)cc1; test system = healthy Chinese subjects; setting = oral, 10 mg single and multiple; Tmax = 2 to 4 h
Structure (SMILES) = CCC(CC)O[C@@H]1C=C(C(=O)O)C[C@H](N)[C@H]1NC(C)=O; test system = healthy Indian subjects, fed, plasma; setting = oral, 75 mg oseltamivir phosphate, reference capsule formulation, Tamiflu; Tmax = 6.22 ± 1.31 h
Structure (SMILES) = CN[C@H]1C(=O)N[C@@H]2Cc3ccc(cc3)Oc3cc4cc(c3O[C@@H]3O[C@H](C(=O)O)[C@@H](O)[C@H](O)[C@H]3NC(=O)CCCCCCCCC(C)C)Oc3ccc(cc3Cl)[C@@H](O)[C@@H]3NC(=O)[C@H](NC(=O)[C@@H]4NC(=O)[C@@H](NC2=O)c2cc(cc(O)c2Cl)Oc2cc1ccc2O)c1ccc(O)c(c1)-c1c(O[C@H]2O[C@H](CO)[C@@H](O)[C@H](O)[C@@H]2O)cc(O)cc1[C@@H](C(=O)NCCCN(C)C)NC3=O; test system = healthy Japanese subjects, plasma; setting = intravenous infusion, 500 mg, 30 min infusion, single dose, median; Tmax = 0.5 h
Structure (SMILES) = C[C@]12C=CC(=O)C=C1CC[C@@H]1[C@@H]2[C@@H](O)C[C@@]2(C)[C@H]1C[C@H]1O[C@@H](C3CCCCC3)O[C@]12C(=O)CO; test system = children with asthma, serum; setting = inhaled, 80 µg ciclesonide, day 7, HFA-MDI with spacer; Tmax = 0.7 ± 0.048 h
Structure (SMILES) = NS(=O)(=O)c1cc(Cl)c(Cl)c(S(N)(=O)=O)c1; test system = healthy volunteers, plasma; setting = oral, 400 mg, single dose, median; Tmax = 3 h
Structure (SMILES) = CN[C@H](CC(C)C)C(=O)N[C@H]1C(=O)N[C@@H](CC(N)=O)C(=O)N[C@H]2C(=O)N[C@H]3C(=O)N[C@H](C(=O)N[C@H](C(=O)O)c4cc(O)cc(O)c4-c4cc3ccc4O)[C@H](O)c3ccc(c(Cl)c3)Oc3cc2cc(c3O[C@@H]2O[C@H](CO)[C@@H](O)[C@H](O)[C@H]2O[C@H]2C[C@](C)(N)[C@H](O)[C@H](C)O2)Oc2ccc(cc2Cl)[C@H]1O; assay = microdialysis; test system = pig (Danish Landrace), cortical bone; setting = iv infusion, 1000 mg over 100 min, added: meropenem co-administered; Tmax = 5.5 h
Structure (SMILES) = Cc1ccc(Sc2ccccc2N2CCNCC2)c(C)c1; test system = healthy men, plasma; setting = oral, 10 mg once daily, fed, day 12; Tmax = 8.3 h
Structure (SMILES) = Cn1c(=O)n(-c2ccc(C(C)(C)C#N)cc2)c2c3cc(-c4cnc5ccccc5c4)ccc3ncc21; test system = patients with advanced solid tumours; setting = oral, 200 to 800 mg, day 1, added: everolimus; Tmax = ~3 h
Structure (SMILES) = CCCOc1ccc([C@H]2CNC(=O)N2c2ccc3[nH]cnc3c2)cc1; test system = non-elderly adults, fasted, plasma; setting = oral, 200 mg twice daily, day 11, oral solution, median; Tmax = 0.5 h
Structure (SMILES) = CC[C@H](C)[C@@H]1NC(=O)[C@H](CCCNC(=N)N)NC(=O)[C@H](CC(=O)O)NC(=O)[C@H](CC(C)C)NC(=O)[C@H](CCCCN)NC(=O)[C@H](CC(C)C)NC(=O)CNC(=O)[C@H](Cc2ccccc2)NC(=O)[C@@H](NC(=O)CNC(=O)[C@H](CCCCN)NC(=O)[C@H](CO)NC(=O)[C@H](CC(C)C)NC(=O)CNC(=O)[C@H](CCCCN)NC(=O)[C@H](CCCCN)NC(=O)[C@H](CC(N)=O)NC(=O)[C@H](C)NC(=O)CNC(=O)[C@H](CCCCN)NC(=O)[C@H](Cc2ccc(O)cc2)NC(=O)[C@H](CCCCN)NC(=O)[C@H](CCCNC(=N)N)NC(=O)[C@H](C)NC(=O)[C@H](CC(N)=O)NC(=O)[C@@H]2CCCN2C(=O)[C@H](Cc2c[nH]cn2)NC(=O)[C@H](CCC(=O)O)NC(=O)[C@H](CCC(N)=O)NC(=O)CNC(=O)[C@@H]2CCCN2)CSSC[C@@H](C(=O)O)NC(=O)CNC(=O)[C@H](CC(C)C)NC(=O)CNC(=O)[C@H](CO)NC(=O)[C@H](CCSC)NC(=O)[C@H](CO)NC(=O)CNC1=O; assay = ECLA; test system = achondroplasia patients aged 5-18 years, plasma; setting = subcutaneous, 15 µg/kg once daily, day 1; Tmax = 0.23 h
Structure (SMILES) = CS(=O)(=O)n1cc2c(n1)CN([C@H]1CO[C@H](c3cc(F)ccc3F)[C@@H](N)C1)C2; test system = healthy Japanese men, plasma; setting = oral, 25 mg once weekly, day 1; Tmax = 0.5 h
Structure (SMILES) = CCCN1CC(c2ccc(S(C)(=O)=O)cc2)=C(c2ccc(C)cc2)C1=O; test system = healthy Chinese, pooled groups, plasma; setting = oral, 100 mg, fasting; Tmax = ~2 h
Structure (SMILES) = O=C1CCc2ccc(OCCCCN3CCN(c4cccc(Cl)c4Cl)CC3)cc2N1; test system = healthy Japanese men, CYP2D6 IM, plasma; setting = oral, 3 mg aripiprazole single, added: paroxetine 20 mg/day; Tmax = 2.3 ± 1 h
Structure (SMILES) = CO[C@H]1C[C@@H]2CC[C@@H](C)[C@@](O)(O2)C(=O)C(=O)N2CCCC[C@H]2C(=O)O[C@H]([C@H](C)C[C@@H]2CC[C@@H](OP(C)(C)=O)[C@H](OC)C2)CC(=O)[C@H](C)/C=C(\C)[C@@H](O)[C@@H](OC)C(=O)[C@H](C)C[C@H](C)/C=C/C=C/C=C/1C; assay = HPLC-MS/MS; test system = Japanese patients, whole blood; setting = oral, 20 mg, day 1, cycle 1, median; Tmax = 7.93 h
Structure (SMILES) = CON(C)C(=O)N1N=C(c2cc(F)ccc2F)S[C@@]1(CCCN)c1ccccc1; test system = patients, plasma; setting = intravenous, cycle 1 day 3, median; Tmax = 1 h
Structure (SMILES) = NC(=S)NN=Cc1ncccc1N; test system = human, serum; setting = oral, 100 mg; Tmax = 2 h
Structure (SMILES) = CCCCC[C@H](O)CC[C@@H]1[C@H]2Cc3cccc(OCC(=O)O)c3C[C@H]2C[C@H]1O; test system = Japanese patients with PAH, plasma; setting = inhaled, 54 µg four times daily, week 12; Tmax = 0.22 ± 0.25 h
Structure (SMILES) = COc1cc(OC)c(/C=C/S(=O)(=O)Cc2ccc(OC)c(NCC(=O)O)c2)c(OC)c1; test system = cancer patients, phase I, plasma; setting = oral, 560 mg twice daily, day 1 cycle 1; Tmax = 1.02 ± 0.32 h
Structure (SMILES) = CC(C)=CCC[C@](C)(O[C@@H]1O[C@H](CO)[C@@H](O)[C@H](O)[C@H]1O)[C@H]1CC[C@]2(C)[C@@H]1[C@H](O)C[C@@H]1[C@@]3(C)CC[C@H](O[C@@H]4O[C@H](CO)[C@@H](O)[C@H](O)[C@H]4O)C(C)(C)[C@@H]3CC[C@]12C; assay = LC-MS/MS; test system = healthy female volunteers, serum; setting = oral, 3 g fermented red ginseng; Tmax = 10.8 ± 2.68 h
Structure (SMILES) = CCOc1ccc(Cc2cc([C@@H]3S[C@H](CO)[C@@H](O)[C@H](O)[C@H]3O)c(OC)cc2C)cc1; test system = Japanese type 2 diabetes patients, plasma; setting = oral, 5 mg single dose, eGFR ≥90 mL/min/1.73 m^2, median; Tmax = 0.5 h
Structure (SMILES) = C[C@@H](N)c1cc(Cl)ccc1Cn1c(=S)[nH]c(=O)c2[nH]ccc21; test system = healthy Chinese volunteers, plasma; setting = oral, 5 mg once daily, day 10, median; Tmax = 1.02 h
Structure (SMILES) = Nc1cc(F)ccc1NC(=O)c1ccc(CNC(=O)/C=C/c2cccnc2)cc1; test system = Japanese patients, plasma; setting = oral, 30 mg twice weekly, cycle 1 day 25, median; Tmax = 5 h
Structure (SMILES) = NC(=O)c1cnc2[nH]ccc2c1N[C@@H]1[C@@H]2CC3C[C@H]1C[C@@](O)(C3)C2; test system = healthy Japanese men, plasma; setting = oral, 60 mg, single dose fasted median; Tmax = 1.3 h
Structure (SMILES) = CC(=O)Nc1ccc(O)cc1; test system = healthy volunteers, both sexes, plasma; setting = oral, 650 mg, day 6, added: favipiravir, extended; Tmax = 0.74 h
Structure (SMILES) = Cc1ccc(NC(=O)c2ccc(CN3CCN(C)CC3)cc2)cc1Nc1nccc(-c2cncc(-c3oncc3C)c2)n1; test system = healthy volunteers, plasma; setting = oral, 25.0 mg once daily, day 7, 7-day dosing, mean; Tmax = 4.68 h

A few entries again:
Structure (SMILES) = CO[C@H]1C[C@@H]2CC[C@@H](C)[C@@](O)(O2)C(=O)C(=O)N2CCCC[C@H]2C(=O)O[C@H]([C@H](C)C[C@@H]2CC[C@@H](OP(C)(C)=O)[C@H](OC)C2)CC(=O)[C@H](C)/C=C(\C)[C@@H](O)[C@@H](OC)C(=O)[C@H](C)C[C@H](C)/C=C/C=C/C=C/1C; assay = HPLC-MS/MS; test system = Japanese patients, whole blood; setting = oral, 20 mg, day 1, cycle 1, median; Tmax = 7.93 h
Structure (SMILES) = CON(C)C(=O)N1N=C(c2cc(F)ccc2F)S[C@@]1(CCCN)c1ccccc1; test system = patients, plasma; setting = intravenous, cycle 1 day 3, median; Tmax = 1 h
Structure (SMILES) = Cc1ccc(Sc2ccccc2N2CCNCC2)c(C)c1; test system = healthy men, plasma; setting = oral, 10 mg once daily, fed, day 12; Tmax = 8.3 h
